Measured values collected from several papers.
Parts stem from different laboratories: compare values within a part only. Values joined by “and” are separate records of one study, mostly repeats; a detail may differ.

Series 1
Target: Testis-specific serine/threonine-protein kinase 1 (TSSK1B, Homo sapiens, UniProt Q9BXA7)
Chain of UniProt Q9BXA7 (whole entry, looked up): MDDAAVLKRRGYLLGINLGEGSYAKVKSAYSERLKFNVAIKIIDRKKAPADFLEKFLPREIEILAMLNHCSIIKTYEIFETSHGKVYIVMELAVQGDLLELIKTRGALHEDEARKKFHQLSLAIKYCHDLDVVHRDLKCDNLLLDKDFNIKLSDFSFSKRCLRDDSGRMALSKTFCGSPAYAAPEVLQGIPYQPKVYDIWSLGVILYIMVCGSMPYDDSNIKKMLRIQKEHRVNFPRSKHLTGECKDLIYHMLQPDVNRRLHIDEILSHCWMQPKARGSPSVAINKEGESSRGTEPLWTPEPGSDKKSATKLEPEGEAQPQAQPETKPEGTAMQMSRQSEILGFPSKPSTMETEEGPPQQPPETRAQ
Effect on: enzyme activity
Action: inhibitor
Tested at: 0.5 µM
Reference: control
| Compound | remaining activity [%] |
| --- | --- |
| O=C(NC(NC(=S)Nc1ccc(F)c([N+](=O)[O-])c1)C(Cl)(Cl)Cl)C(c1ccccc1)c1ccccc1 (stereo not shown) | 93.4 |
| c1ccc(-c2cnc(Nc3ccc(OCCN4CCCC4)cc3)s2)cc1 | 96.5 |
| COc1cc2ncnc(Nc3ccc(O)c(Br)c3)c2cc1OC | 84.7 |
| CN(C)C[C@H]1CCn2c(c(C3=C(c4cn(C)c5ccccc45)C(=O)NC3=O)c3ccccc32)C1 | 104 |
| COc1cc2c(cc1OC)-c1[nH]nc(Nc3cccc(F)c3)c1C2 | 71.7 |
| Cn1nc2c3c(cccc31)C(=O)c1ccccc1-2 | 98.4 |
| CN([C@@H](Cc1ccc(OS(=O)(=O)c2cccc3cnccc23)cc1)C(=O)N1CCN(c2ccccc2)CC1)S(=O)(=O)c1cccc2cnccc12 | 95.4 |
| CCN(CC)C(=O)c1ccc(Nc2nc(OCC3CCCCC3)c3[nH]cnc3n2)cc1 | 15.3 |
| O=C1C(Cl)=C(N2C(=O)CCC2=O)C(=O)c2ccccc21 | 104 |
| Ic1cccc(CSc2nnc(-c3ccncc3)o2)c1 | 97.6 |
| CCN(CC)CCNC(=O)c1c(C)[nH]c(/C=C2\C(=O)Nc3ccc(Cl)cc32)c1C | 8.45 |
| C[C@@H]1CCN(C(=O)CC#N)C[C@@H]1N(C)c1ncnc2[nH]ccc12 | 85.1 |
| O=C(Nc1cccc(Nc2nccc(Nc3cccc(C(F)(F)F)c3)n2)c1)C1CC1 | 100 |
| N#C/C(=C\c1ccc(O)c(O)c1)C(=O)NCc1ccccc1 | 90.2 |
| Cc1cn(-c2cc(NC(=O)c3ccc(C)c(Nc4nccc(-c5cccnc5)n4)c3)cc(C(F)(F)F)c2)cn1 | 77.7 |
| O=c1cc(-c2cccc3c2Sc2ccccc2S3)oc(N2CCOCC2)c1 | 107 |
| Cc1nc2cc3nc(-c4cccs4)cnc3cc2n1C | 91.3 |
| COc1cc2ncnc(Nc3cccc(Cl)c3)c2cc1OC | 95.7 |
| O=C1c2ccccc2-c2n[nH]c3cccc1c23 | 73.4 |
| Nc1cccc(-c2cc3c(Oc4cccc(O)c4)ncnc3[nH]2)c1 | 91.1 |
| Cc1cc2ncc(-c3ccccc3)nc2cc1C | 113 |
| N#Cc1c(NC(=O)c2cccc3ccccc23)sc2c1CCCC2 | 94.9 |
| CCN(CC)CCNC(=O)c1c(C)[nH]c(/C=C2\C(=O)Nc3ccc(F)cc32)c1C | 20.7 |
| c1ccc(-c2[nH]ncc2-c2ccnc3ccccc23)nc1 | 104 |

Series 2
Cell line: mouse MPNST tumor cells
Technique: high-content nuclear imaging
Item: cell number
Tested at: 10 µM
Time: 12 h
Notes: mean of 2 replicates
Reference: plate mean
Reading: higher = more cells
| SMILES | nuclei count |
| --- | --- |
| CC(=O)Nc1nc(C)c(S(=O)(=O)Nc2ccc(C(O)(C(F)(F)F)C(F)(F)F)cc2)s1 | 0.367 z-score |
| CCCCc1nc(Cl)c(CO)n1Cc1ccc(-c2ccccc2-c2nnn[nH]2)cc1 | 0.875 z-score and 0.135 z-score |
| CC1(C)C[C@@H]1C(=O)N/C(=C\CCCCSC[C@H](N)C(=O)O)C(=O)O | 0.723 z-score |
| CC(=O)c1ccc2c(c1)N(CCCN(C)C)c1ccccc1S2 | 0.271 z-score |
| CO[C@H]1/C=C/O[C@@]2(C)Oc3c(C)c(O)c4c(O)c(c(/C=N/N5CCN(C6CCCC6)CC5)c(O)c4c3C2=O)NC(=O)/C(C)=C\C=C\[C@H](C)[C@H](O)[C@@H](C)[C@@H](O)[C@@H](C)[C@H](OC(C)=O)[C@@H]1C | 4.6 z-score |
| CCN1CCN(Cc2ccc(-c3cc4c(N[C@H](C)c5ccccc5)ncnc4[nH]3)cc2)CC1 | -4.74 z-score |
| NS(=O)(=O)c1cc(C(=O)O)cc(N2CCCC2)c1Oc1ccccc1 | 0.742 z-score |
| CC(C)(Oc1ccc(C2CC2(Cl)Cl)cc1)C(=O)O (stereo not shown) | 1.57 z-score |
| COc1cc(C(=O)NS(=O)(=O)c2ccccc2C)ccc1Cc1cn(C)c2ccc(NC(=O)OC3CCCC3)cc12 | 0.553 z-score and -0.709 z-score |
| Nc1ccc(S(=O)(=O)Nc2cnc3ccccc3n2)cc1 | -0.729 z-score |
| COC(=O)CC1CC(c2ccc(O)cc2)=NO1 (stereo not shown) | 2.84 z-score |
| Cn1cc(-c2ccc3nnc(Sc4ccc5ncccc5c4)n3n2)cn1 | 4.52 z-score |
| CC(C)NNC(=O)c1ccncc1 | 0.928 z-score |

Series 3
Cell line: A-375
Tested at: 100 µM
Time: 36 h
| SMILES | viability |
| --- | --- |
| C[C@H](Cn1cnc2c(N)ncnc21)OCP(=O)(O)O | 102% |
| COc1cc2nc(N3CCN(C(=O)C4CCCO4)CC3)nc(N)c2cc1OC (stereo not shown) | 57.6% |
| NS(=O)(=O)c1cc(C2(O)NC(=O)c3ccccc32)ccc1Cl (stereo not shown) | 96.5% |
| COC1C(OC(N)=O)C(O)C(Oc2ccc3c(O)c(NC(=O)c4ccc(O)c(CC=C(C)C)c4)c(=O)oc3c2C)OC1(C)C (stereo not shown) | 84.3% |
| C[C@H](CCC(=O)O)[C@H]1CC[C@H]2[C@@H]3C(=O)C[C@@H]4CC(=O)CC[C@]4(C)[C@H]3CC(=O)[C@]12C | 110% |
| C#C[C@]1(O)CC[C@H]2[C@@H]3CCc4cc(O)ccc4[C@H]3CC[C@@]21C | 13.4% |
| CN1CCC(=C2c3ccccc3CCc3sccc32)CC1 | -2.61% and -0.0513% |
| O=C(O)CCc1nc(-c2ccccc2)c(-c2ccccc2)o1 | 94.1% |
| CCCC(=O)Nc1ccc(OCC(O)CNC(C)C)c(C(C)=O)c1 (stereo not shown) | 93% |
| CCS(=O)(=O)CCn1c([N+](=O)[O-])cnc1C | 102% |
| Cc1cc(O)c2c(c1)C(=O)c1cccc(O)c1C2=O | 124% |
| CCOC(=O)CC(=O)N1CCSC1COc1ccccc1OC (stereo not shown) | 111% |
| O=C(OOC(=O)c1ccccc1)c1ccccc1 | 111% |

Series 4
Cell line: sample I colorectal tumour organoid
Tested at: 1 µM
Reference: DMSO
| SMILES | viability |
| --- | --- |
| CCOc1cn(-c2ccc(F)cc2C)nc1C(=O)Nc1ccc(Oc2ccnc3cc(OC)c(OC)cc23)c(F)c1 | 96.5% and 111% |
| CCC(=N\O)/C(C)=C/c1ccc(F)cc1 | 89% |
| O=C(NCc1ccccc1)c1ccc(S(=O)(=O)NCc2ccccc2)cc1 | 92.2% |
| CCN(CC)S(=O)(=O)Nc1cccc(-c2ccc3c(NC(=O)C4CC4)n[nH]c3c2)c1 | 91.7% |
| CC(=O)NCC(=O)N1[C@@H]2CC[C@H]1c1ccc(Nc3ncc(C(F)(F)F)c(NC4CCC4)n3)cc12 | 34.3% and 32.8% |
| COc1cccc(NC(=O)c2nc3scc(CN(C)Cc4ccccc4)c3c(=O)[nH]2)c1 | 146% |
| CCC(=NO)C(C)=Cc1ccc(F)c(C)c1 | 117% |
| COc1cc(Nc2ccnc3ccc(Br)cc23)cc(OC)c1OC | 93.9% |
| Cn1cc(-c2ccc3occ(-c4ccccc4-c4ccccc4)c3n2)cn1 | 123% |
| CC(C)C(=O)Nc1n[nH]c2cc(-c3cccc(NS(=O)(=O)C4CC4)c3)ccc12 | 106% |
| CCNC(=O)c1cc2c(N3CCOC[C@H]3C)ccnc2n1C | 105% and 93.7% |
| COc1ccc2c(O[C@@H]3C[C@H]4C(=O)N[C@]5(C(=O)O)CC5/C=C\CCCCC[C@H](NC(=O)OC5CCCC5)C(=O)N4C3)cc(-c3csc(NC(=O)C(C)C)n3)nc2c1C (stereo partly shown) | 82% |
| O=C(Nc1cccnn1)N1CC(CC=Cc2cncc(Oc3ccc(C(F)(F)F)cn3)n2)C1 | 114% |
| O=C(O)c1ccc(-c2coc3ncc(-c4ccccc4)cc23)cc1Cl | 103% |

Excerpt of the above (series 2):
| SMILES | nuclei count |
| --- | --- |
| CCCCc1nc(Cl)c(CO)n1Cc1ccc(-c2ccccc2-c2nnn[nH]2)cc1 | 0.875 z-score and 0.135 z-score |
| CC1(C)C[C@@H]1C(=O)N/C(=C\CCCCSC[C@H](N)C(=O)O)C(=O)O | 0.723 z-score |
| CC(=O)c1ccc2c(c1)N(CCCN(C)C)c1ccccc1S2 | 0.271 z-score |
| CO[C@H]1/C=C/O[C@@]2(C)Oc3c(C)c(O)c4c(O)c(c(/C=N/N5CCN(C6CCCC6)CC5)c(O)c4c3C2=O)NC(=O)/C(C)=C\C=C\[C@H](C)[C@H](O)[C@@H](C)[C@@H](O)[C@@H](C)[C@H](OC(C)=O)[C@@H]1C | 4.6 z-score |
| CCN1CCN(Cc2ccc(-c3cc4c(N[C@H](C)c5ccccc5)ncnc4[nH]3)cc2)CC1 | -4.74 z-score |
| NS(=O)(=O)c1cc(C(=O)O)cc(N2CCCC2)c1Oc1ccccc1 | 0.742 z-score |
| CC(C)(Oc1ccc(C2CC2(Cl)Cl)cc1)C(=O)O (stereo not shown) | 1.57 z-score |
| COc1cc(C(=O)NS(=O)(=O)c2ccccc2C)ccc1Cc1cn(C)c2ccc(NC(=O)OC3CCCC3)cc12 | 0.553 z-score and -0.709 z-score |
| Nc1ccc(S(=O)(=O)Nc2cnc3ccccc3n2)cc1 | -0.729 z-score |
| COC(=O)CC1CC(c2ccc(O)cc2)=NO1 (stereo not shown) | 2.84 z-score |
